Published values gathered from unrelated publications.
“And” joins repeats or separate records; there may be more than shown. ± marks the error that the study gave.

`C=CC(=O)Nc1cc(Nc2nccc(-c3cn(C4CC4)c4ccccc34)n2)c(OC)cc1N(C)CCNC` has a half-life of 41.8 ± 3.93 h (healthy Chinese male human, plasma; oral, 110 mg almonertinib, metabolite, [14C] single dose).
The half-life of `NC(=O)/C=C/c1cccc(S(=O)(=O)Nc2ccccc2)c1` is reported as 8.08 h (human, severe liver dysfunction, plasma; intravenous, 400 mg/m^2 belinostat, 30 min infusion, cycle 1 day -7).
For `Cn1c(=O)oc2ccc(-c3ccc(CC(C#N)NC(=O)C4CNCCCO4)c(F)c3)cc21` (stereo not shown), the half-life was 26.8 h (human, plasma; 20 mg once daily, day 28, mean).
For `O=C(CCc1ccc(CNC(C(=O)O)C2CCCCC2)cn1)NO` (stereo not shown), the half-life was less than 1 h (human, plasma; oral, multiple dose).
The half-life of `CONC(=O)/C=C/c1cccc(S(=O)(=O)Nc2ccccc2)c1` is reported as 1.34 h (human, mild liver dysfunction, plasma; intravenous, 400 mg/m^2 belinostat, 30 min infusion, cycle 1 day -7).
`Cc1[nH]nc2c1N=C(c1ccccc1Cl)c1cnc(N3CCOCC3)cc1N2` has a half-life of 35.5 h and 23.7 h (refers to: total radioactivity; human male, plasma; oral, 10 mg).
The half-life of `O=C(O)/C=C/c1cccc(S(=O)(=O)Nc2ccccc2)c1` is reported as 2.52 h (human, mild liver dysfunction, plasma; intravenous, 400 mg/m^2 belinostat, 30 min infusion, cycle 1 day -7).
For `CCCCCCCOc1ccc(CC[C@](N)(CO)COP(=O)(O)O)cc1C(F)(F)F`, the half-life was 380 to 420 h (healthy male humans, plasma; oral, 0.125 to 0.75 mg multiple doses).
The half-life of `CC(=O)N[C@H](CC(=O)O)C(=O)N[C@H](Cc1c[nH]c2ccccc12)C(=O)N[C@H](Cc1ccccc1)C(=O)N[C@H](CCCCN)C(=O)N[C@H](C)C(=O)N[C@H](Cc1ccccc1)C(=O)N[C@H](Cc1ccc(O)cc1)C(=O)N[C@H](CC(=O)O)C(=O)N[C@H](CCCCN)C(=O)N[C@@H](C(=O)N[C@H](C)C(=O)N[C@H](CCC(=O)O)C(=O)N[C@H](CCCCN)C(=O)N[C@H](Cc1ccccc1)C(=O)N[C@H](CCCCN)C(=O)N[C@H](CCC(=O)O)C(=O)N[C@H](C)C(=O)N[C@H](Cc1ccccc1)C(N)=O)C(C)C` is reported as 1.99 h (human, statin-treated high-risk CHD, both sexes, plasma; oral, 500 mg daily, day 13, mean, detected subjects only).
With `O=C(O)c1cccc(S(=O)(=O)Nc2ccccc2)c1` the half-life was 4.4 h (human, normal liver function, plasma; intravenous, 400 mg/m^2 belinostat, 30 min infusion, cycle 1 day -7).
For `CC(C)(O)c1ncc([S@](N)(=O)=NC(=O)Nc2c3c(cc4c2CCC4)CCC3)s1`, the half-life was 16.2 h (healthy human volunteers, plasma; oral, 50 mg twice daily, day 14, fed, enteric-coated tablet).
`O=C(CCc1ccc(CNC(C(=O)OC2CCCC2)C2CCCCC2)cn1)NO` (stereo not shown) gave a half-life of 0.5 h (human, plasma; oral, 60 mg, single dose, geometric mean).
`Cc1nc(C)c(C=[N+]([O-])C(C)(C)C)nc1C` gave a half-life of 2.3 h (healthy Chinese human, both sexes, serum; oral, 1200 mg twice daily, 7 days).

For quick reference, copied from above:
The half-life of `O=C(O)/C=C/c1cccc(S(=O)(=O)Nc2ccccc2)c1` is reported as 2.52 h (human, mild liver dysfunction, plasma; intravenous, 400 mg/m^2 belinostat, 30 min infusion, cycle 1 day -7).
